Measurements from different studies.
Lines come from different studies, so protocols differ. ± marks the error that the study gave.
EPHA2: Ephrin type-A receptor 2 (EPHA2, Homo sapiens, UniProt P29317)
UniProt P29317, sequence (whole entry, looked up): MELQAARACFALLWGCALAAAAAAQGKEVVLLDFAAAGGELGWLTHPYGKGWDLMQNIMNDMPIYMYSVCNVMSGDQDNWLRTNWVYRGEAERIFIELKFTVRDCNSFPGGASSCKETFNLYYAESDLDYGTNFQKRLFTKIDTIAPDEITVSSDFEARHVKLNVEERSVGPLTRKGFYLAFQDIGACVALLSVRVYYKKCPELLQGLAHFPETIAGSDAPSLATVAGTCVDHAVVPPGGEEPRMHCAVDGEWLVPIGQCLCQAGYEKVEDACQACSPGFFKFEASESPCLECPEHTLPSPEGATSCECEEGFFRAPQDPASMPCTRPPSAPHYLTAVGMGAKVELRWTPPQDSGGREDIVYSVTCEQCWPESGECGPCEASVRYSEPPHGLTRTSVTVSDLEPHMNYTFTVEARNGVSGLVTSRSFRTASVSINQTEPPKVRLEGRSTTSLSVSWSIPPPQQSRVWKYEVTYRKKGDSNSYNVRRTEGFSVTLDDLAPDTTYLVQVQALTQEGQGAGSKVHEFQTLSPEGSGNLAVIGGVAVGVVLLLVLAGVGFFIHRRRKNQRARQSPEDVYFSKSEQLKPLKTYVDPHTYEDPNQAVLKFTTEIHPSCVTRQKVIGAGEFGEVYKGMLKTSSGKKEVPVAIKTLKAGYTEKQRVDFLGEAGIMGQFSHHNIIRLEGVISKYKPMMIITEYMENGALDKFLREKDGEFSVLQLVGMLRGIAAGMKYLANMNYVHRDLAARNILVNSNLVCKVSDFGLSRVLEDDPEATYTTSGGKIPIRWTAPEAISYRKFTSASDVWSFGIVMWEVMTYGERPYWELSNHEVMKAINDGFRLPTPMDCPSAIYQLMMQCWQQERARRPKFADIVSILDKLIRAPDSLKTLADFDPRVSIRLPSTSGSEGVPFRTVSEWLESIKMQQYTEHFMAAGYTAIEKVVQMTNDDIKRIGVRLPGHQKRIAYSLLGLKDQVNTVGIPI
CDK5 with p25: Cyclin-dependent kinase 5, with p25 (CDK5, Homo sapiens, UniProt Q00535)
UniProt Q00535, sequence (whole entry, looked up): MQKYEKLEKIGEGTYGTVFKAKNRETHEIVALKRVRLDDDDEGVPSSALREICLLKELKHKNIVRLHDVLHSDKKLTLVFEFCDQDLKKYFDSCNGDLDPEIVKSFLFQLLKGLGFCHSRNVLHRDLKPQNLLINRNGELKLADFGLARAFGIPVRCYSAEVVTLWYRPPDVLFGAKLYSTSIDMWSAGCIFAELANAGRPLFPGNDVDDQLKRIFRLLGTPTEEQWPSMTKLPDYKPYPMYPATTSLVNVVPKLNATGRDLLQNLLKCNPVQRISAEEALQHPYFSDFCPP
P2RX7: P2X purinoceptor 7 (P2RX7, Homo sapiens, UniProt Q99572)
UniProt Q99572, sequence (whole entry, unmodified, looked up): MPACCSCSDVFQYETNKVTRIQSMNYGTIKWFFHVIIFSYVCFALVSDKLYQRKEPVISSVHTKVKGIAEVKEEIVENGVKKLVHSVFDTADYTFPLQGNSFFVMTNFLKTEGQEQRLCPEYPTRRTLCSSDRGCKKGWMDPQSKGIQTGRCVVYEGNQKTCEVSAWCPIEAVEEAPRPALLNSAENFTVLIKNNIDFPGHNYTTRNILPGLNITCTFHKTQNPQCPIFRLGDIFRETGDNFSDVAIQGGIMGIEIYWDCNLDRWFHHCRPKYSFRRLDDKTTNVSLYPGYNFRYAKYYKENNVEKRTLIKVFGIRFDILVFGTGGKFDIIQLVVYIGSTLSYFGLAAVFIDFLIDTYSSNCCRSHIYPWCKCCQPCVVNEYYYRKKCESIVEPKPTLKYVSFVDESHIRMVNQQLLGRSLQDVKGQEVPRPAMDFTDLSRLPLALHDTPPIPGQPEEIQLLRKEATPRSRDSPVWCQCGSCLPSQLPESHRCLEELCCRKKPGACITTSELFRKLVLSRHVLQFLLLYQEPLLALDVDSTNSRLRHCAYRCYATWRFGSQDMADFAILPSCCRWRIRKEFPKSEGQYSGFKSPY
MPO: Myeloperoxidase (MPO, Homo sapiens, UniProt P05164)
UniProt P05164, sequence (whole entry, looked up): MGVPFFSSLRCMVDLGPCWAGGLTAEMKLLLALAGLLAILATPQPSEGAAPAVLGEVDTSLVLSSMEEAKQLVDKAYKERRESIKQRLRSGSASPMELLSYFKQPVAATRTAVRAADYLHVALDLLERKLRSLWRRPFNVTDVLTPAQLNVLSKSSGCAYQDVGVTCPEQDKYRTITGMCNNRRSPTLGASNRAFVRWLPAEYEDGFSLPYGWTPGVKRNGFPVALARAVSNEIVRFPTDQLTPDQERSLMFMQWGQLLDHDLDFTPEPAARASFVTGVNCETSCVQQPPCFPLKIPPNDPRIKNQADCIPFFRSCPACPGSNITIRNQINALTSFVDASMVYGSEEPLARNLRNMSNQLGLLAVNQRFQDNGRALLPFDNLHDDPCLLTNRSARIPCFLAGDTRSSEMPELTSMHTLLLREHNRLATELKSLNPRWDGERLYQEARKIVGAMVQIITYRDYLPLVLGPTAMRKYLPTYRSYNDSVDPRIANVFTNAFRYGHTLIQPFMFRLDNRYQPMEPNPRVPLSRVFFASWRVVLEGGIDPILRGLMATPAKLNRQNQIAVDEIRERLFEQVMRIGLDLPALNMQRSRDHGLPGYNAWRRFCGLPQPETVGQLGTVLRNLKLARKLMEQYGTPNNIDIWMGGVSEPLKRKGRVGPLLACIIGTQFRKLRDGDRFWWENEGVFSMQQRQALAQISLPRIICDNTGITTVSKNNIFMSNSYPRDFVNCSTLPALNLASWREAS
SNRK: SNF-related serine/threonine-protein kinase (SNRK, Homo sapiens, UniProt Q9NRH2)
UniProt Q9NRH2, sequence (whole entry, looked up): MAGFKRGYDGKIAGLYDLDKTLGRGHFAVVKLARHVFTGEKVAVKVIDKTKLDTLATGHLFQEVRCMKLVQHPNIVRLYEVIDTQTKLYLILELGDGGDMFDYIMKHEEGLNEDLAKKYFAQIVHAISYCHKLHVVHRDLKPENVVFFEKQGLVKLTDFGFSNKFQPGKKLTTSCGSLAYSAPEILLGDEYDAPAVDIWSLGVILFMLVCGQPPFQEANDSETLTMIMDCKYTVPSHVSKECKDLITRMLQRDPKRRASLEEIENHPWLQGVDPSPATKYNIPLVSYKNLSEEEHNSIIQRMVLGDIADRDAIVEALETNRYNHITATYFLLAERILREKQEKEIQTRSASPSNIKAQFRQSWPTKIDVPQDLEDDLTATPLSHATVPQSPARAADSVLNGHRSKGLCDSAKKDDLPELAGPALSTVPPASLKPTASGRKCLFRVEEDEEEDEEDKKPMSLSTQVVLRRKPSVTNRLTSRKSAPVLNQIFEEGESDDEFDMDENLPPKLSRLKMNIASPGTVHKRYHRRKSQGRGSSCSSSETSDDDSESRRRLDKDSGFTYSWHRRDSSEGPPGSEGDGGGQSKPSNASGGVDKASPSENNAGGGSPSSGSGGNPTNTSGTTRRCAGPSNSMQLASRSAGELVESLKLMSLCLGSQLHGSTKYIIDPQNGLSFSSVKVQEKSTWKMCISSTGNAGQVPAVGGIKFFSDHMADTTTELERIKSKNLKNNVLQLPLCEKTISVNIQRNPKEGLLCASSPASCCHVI
MAP3K3: Mitogen-activated protein kinase kinase kinase 3 (MAP3K3, Homo sapiens, UniProt Q99759)
UniProt Q99759, sequence (whole entry, looked up): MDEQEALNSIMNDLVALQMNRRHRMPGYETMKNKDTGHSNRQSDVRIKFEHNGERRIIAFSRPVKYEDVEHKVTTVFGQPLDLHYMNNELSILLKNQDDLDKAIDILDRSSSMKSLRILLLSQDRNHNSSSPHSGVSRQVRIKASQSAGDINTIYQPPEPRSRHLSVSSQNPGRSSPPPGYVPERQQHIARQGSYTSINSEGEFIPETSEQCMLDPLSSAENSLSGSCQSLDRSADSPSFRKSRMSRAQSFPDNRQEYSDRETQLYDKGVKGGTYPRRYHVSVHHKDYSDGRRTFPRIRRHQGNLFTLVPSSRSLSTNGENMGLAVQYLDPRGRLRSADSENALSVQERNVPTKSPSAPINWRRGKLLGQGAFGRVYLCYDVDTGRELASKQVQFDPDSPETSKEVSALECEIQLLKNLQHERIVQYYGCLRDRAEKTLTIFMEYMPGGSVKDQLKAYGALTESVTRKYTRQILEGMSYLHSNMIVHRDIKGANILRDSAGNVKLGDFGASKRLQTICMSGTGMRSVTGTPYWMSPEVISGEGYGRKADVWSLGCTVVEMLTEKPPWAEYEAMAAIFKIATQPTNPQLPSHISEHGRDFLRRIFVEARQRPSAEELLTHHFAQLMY
UniProt Q15569, sequence (whole entry, looked up): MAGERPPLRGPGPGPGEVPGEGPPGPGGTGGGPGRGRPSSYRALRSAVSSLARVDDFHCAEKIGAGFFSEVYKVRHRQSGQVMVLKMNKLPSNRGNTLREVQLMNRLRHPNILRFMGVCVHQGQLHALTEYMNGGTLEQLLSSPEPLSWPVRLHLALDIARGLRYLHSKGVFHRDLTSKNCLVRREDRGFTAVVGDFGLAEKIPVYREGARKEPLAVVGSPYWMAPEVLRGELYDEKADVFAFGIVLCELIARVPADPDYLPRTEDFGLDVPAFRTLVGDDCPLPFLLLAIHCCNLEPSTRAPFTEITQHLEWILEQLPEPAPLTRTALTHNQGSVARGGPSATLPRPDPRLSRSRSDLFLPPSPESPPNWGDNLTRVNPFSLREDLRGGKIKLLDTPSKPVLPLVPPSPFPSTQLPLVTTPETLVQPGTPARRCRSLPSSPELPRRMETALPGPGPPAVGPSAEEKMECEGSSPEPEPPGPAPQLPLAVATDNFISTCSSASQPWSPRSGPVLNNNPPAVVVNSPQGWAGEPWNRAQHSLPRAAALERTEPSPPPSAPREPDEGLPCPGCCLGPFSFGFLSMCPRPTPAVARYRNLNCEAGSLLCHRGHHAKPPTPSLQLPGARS
UniProt P49674, sequence (whole entry, looked up): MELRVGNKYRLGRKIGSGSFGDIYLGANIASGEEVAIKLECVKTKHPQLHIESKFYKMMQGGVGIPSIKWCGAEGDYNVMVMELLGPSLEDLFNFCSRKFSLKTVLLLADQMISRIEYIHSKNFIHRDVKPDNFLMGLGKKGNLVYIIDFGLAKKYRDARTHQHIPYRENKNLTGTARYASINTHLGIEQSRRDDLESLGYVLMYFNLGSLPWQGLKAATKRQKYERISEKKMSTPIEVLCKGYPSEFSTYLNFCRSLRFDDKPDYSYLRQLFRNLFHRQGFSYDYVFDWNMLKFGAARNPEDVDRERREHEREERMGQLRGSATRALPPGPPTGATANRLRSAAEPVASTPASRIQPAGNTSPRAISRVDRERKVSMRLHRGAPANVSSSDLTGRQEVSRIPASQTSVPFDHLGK

With `Cc1cc(Nc2cc(N3CCN(C)CC3)nc(Sc3ccc(NC(=O)C4CC4)cc3)n2)[nH]n1` the remaining activity was 87% (EPHA2; kinase activity, KinaseProfiler; 0.03 µM, species human; reference: control).
With `CNc1ncc2c(/C=C/C(=O)N3CCC(OC)CC3)nn(Cc3cccc(C(F)(F)F)c3)c2n1` the remaining activity was 116% (CDK5 with p25; inhibitor; 1 µM; reference: control).
`COc1ccc2cc3[n+](cc2c1OC)CCc1cc2c(cc1-3)OCO2` gave a remaining activity of 92.6% (P2RX7; ATP-evoked current, inhibitor, whole-cell patch clamp; HEK293 transfected; 0.3 µM).
`O=C1NC(=O)/C(=C/c2ccc(-c3ccc(F)cc3O)o2)S1` has a remaining activity of 51% (EPHA2; enzyme activity; 10 µM).
`CC(C)Oc1cc(N2CCN(C)CC2)ccc1Nc1nc(N)n(C(=O)NCc2ccccc2S(=O)(=O)C(C)C)n1` gave a remaining activity of 14% (Ribosomal protein S6 kinase alpha-4, C-terminal kinase domain (RPS6KA4, Homo sapiens, UniProt O75676); enzyme activity; 10 µM; reference: control).
The remaining activity of `COc1ccc(Cl)cc1-c1cc(=O)[nH]c(=S)n1CC(N)=O` is reported as 2.16% (MPO; 10 µM, 0.1 h).
`C=CC(=O)N1CCC([C@@H]2CCNc3c(C(N)=O)c(-c4ccc(Oc5ccccc5)cc4)nn32)CC1` has a remaining activity of 101.2 ± 0.2% (Fibroblast growth factor receptor 3 (FGFR3, Homo sapiens, UniProt P22607); kinase activity, inhibitor, HotSpot radiometric; 100 nM, together with: ATP 10 µM).
`COc1cc(Nc2ncc3c(n2)-c2ccc(Cl)cc2C(c2c(F)cccc2OC)=NC3)ccc1C(=O)O` gave a remaining activity of 99% (p38 gamma (MAPK12); inhibitor, biochemical kinase; 1 µM).
`CC(C)(C)c1nc(-c2cccc(NS(=O)(=O)c3c(F)cccc3F)c2F)c(-c2ccnc(N)n2)s1` has a remaining activity of 76% (Mitogen-activated protein kinase kinase kinase 7, with TAB1 (MAP3K7, Homo sapiens, UniProt O43318); kinase activity, radiometric 33PanQinase; 1 µM; reference: DMSO).
The remaining activity of `COc1cc(N2CCN(C)CC2)ccc1Nc1nc(N)n(C(=O)NCc2ccccc2S(=O)(=O)C(C)C)n1` is reported as 30% (Microtubule-associated serine/threonine-protein kinase 1 (MAST1, Homo sapiens, UniProt Q9Y2H9); enzyme activity; 10 µM; reference: control).
`O=C(O)c1ccc(Nc2ncc3c(n2)-c2ccc(Cl)cc2C(c2c(F)cccc2F)=NC3)cc1` gave a remaining activity of 29% (EphA1(h); kinase activity; 1 µM).
The remaining activity of `COc1ccc(F)cc1C(=O)NCc1ccc(-c2nn([C@@H](C)C(F)(F)F)c(N)c2C(N)=O)cc1` is reported as 68.4 ± 0.3% (Casein kinase I isoform epsilon (CSNK1E, Homo sapiens, UniProt P49674); kinase activity, inhibitor, HotSpot radiometric; 1000 nM, together with: ATP at Km).
The remaining activity of `COc1cc(-c2cncc3c2CN(C)Cc2cc(N4CCNCC4)ccc2-3)cc(OC)c1OC` is reported as 118% (SNRK; kinase activity; 1 µM, human enzyme, together with: ATP 10 µM; reference: DMSO control).
`O=C(NC1CCC1)c1ccc2nc(-c3cccc(NS(=O)(=O)NCCN4CCCCC4)c3)cn2c1` gave a remaining activity of 96% (SNRK; enzyme activity; 10 µM).
`CC(C)(C)c1nc2c(s1)c1nc(N)ncc1c1ccc(NS(=O)(=O)c3c(F)cccc3F)c(F)c12` gave a remaining activity of 101% (CDK5 with p25; kinase activity, radiometric 33PanQinase; 1 µM; reference: DMSO).
With `C=CC(=O)N1CCC[C@@H](n2nc(-c3ccc(Oc4ccccc4)cc3)c3c(N)ncnc32)C1` the remaining activity was 83.3 ± 0.2% (MAP3K3; kinase activity, inhibitor, HotSpot radiometric; 100 nM, together with: ATP 10 µM).
For `COc1cc(F)ccc1-c1ncnc(Nc2cccc(C[S@](C)(=N)=O)c2)n1`, the remaining activity was 92% (Homeodomain-interacting protein kinase 3 (HIPK3, Homo sapiens, UniProt Q9H422); kinase activity; 10 µM, together with: 10 µM ATP).
With `Cc1cc(NC(=O)c2cccc(NC(=O)/C=C/CN(C)C)c2)ccc1Nc1nccc(-c2cccnc2)n1` the remaining activity was 0.974 (Mitogen-activated protein kinase 8 (MAPK8, Homo sapiens, UniProt P45983); enzyme activity, inhibitor; 0.02032 µM, 18 h, unit not given, together with: GSH 10 mM pre-incubation; reference: vehicle).
For `C=CC[C@H]1c2ccc(OC)c(OC)c2CN2CCc3cc4c(cc3[C@@H]12)OCO4`, the remaining activity was 98.4% (P2RX7; ATP-evoked current, inhibitor, whole-cell patch clamp; HEK293 transfected; 0.3 µM).
The remaining activity of `CC(C)C(=O)Nc1n[nH]c2cc(-c3cccc(NS(=O)(=O)C4CC4)c3)ccc12` is reported as 98.5% (Phosphatidylinositol 4-phosphate 5-kinase type-1 gamma (PIP5K1C, Homo sapiens, UniProt O60331); ADP-Glo; 41.2 nM; reference: DMSO).
With `CC#CC(=O)N1CCC[C@H]1c1nc(-c2ccc(C(=O)Nc3ccccn3)cc2)c2c(N)nccn12` the remaining activity was 91.5 ± 5.9% (MAP3K3; kinase activity, inhibitor, HotSpot radiometric; 100 nM, together with: ATP 10 µM).
`COc1cc(N2CCN(C)CC2)ccc1Nc1nc(N)n(C(=S)NCc2c(Cl)cccc2Cl)n1` gave a remaining activity of 11% (Dual specificity testis-specific protein kinase 1 (TESK1, Homo sapiens, UniProt Q15569); enzyme activity; 10 µM; reference: control).
With `NC/C(=C\F)COc1cccc(Cn2c(=S)[nH]c(=O)c3[nH]cnc32)c1` the remaining activity was 45.9% (MPO; LDL lipid peroxidation, inhibitor, cholesteryl ester hydroperoxide; 0.0185 µM).
With `C=CC(=O)N1CCC[C@@H](n2nc(-c3ccc(Oc4ccccc4)cc3)c3c(N)ncnc32)C1` the remaining activity was 177% (BDNF/NT-3 growth factors receptor (NTRK2, Homo sapiens, UniProt Q16620); 1 µM).

Excerpt of the above:
`O=C1NC(=O)/C(=C/c2ccc(-c3ccc(F)cc3O)o2)S1` has a remaining activity of 51% (EPHA2; enzyme activity; 10 µM).
`CC(C)Oc1cc(N2CCN(C)CC2)ccc1Nc1nc(N)n(C(=O)NCc2ccccc2S(=O)(=O)C(C)C)n1` gave a remaining activity of 14% (Ribosomal protein S6 kinase alpha-4, C-terminal kinase domain (RPS6KA4, Homo sapiens, UniProt O75676); enzyme activity; 10 µM; reference: control).
The remaining activity of `COc1ccc(Cl)cc1-c1cc(=O)[nH]c(=S)n1CC(N)=O` is reported as 2.16% (MPO; 10 µM, 0.1 h).
`C=CC(=O)N1CCC([C@@H]2CCNc3c(C(N)=O)c(-c4ccc(Oc5ccccc5)cc4)nn32)CC1` has a remaining activity of 101.2 ± 0.2% (Fibroblast growth factor receptor 3 (FGFR3, Homo sapiens, UniProt P22607); kinase activity, inhibitor, HotSpot radiometric; 100 nM, together with: ATP 10 µM).
